Results collected from several papers.
Compare with care: the assays were run in different laboratories. “And” joins repeats or separate records; there may be more than shown.
Target: Macrophage colony-stimulating factor 1 receptor (CSF1R, Homo sapiens, UniProt P07333)
Sequence of UniProt P07333 (whole entry, looked up): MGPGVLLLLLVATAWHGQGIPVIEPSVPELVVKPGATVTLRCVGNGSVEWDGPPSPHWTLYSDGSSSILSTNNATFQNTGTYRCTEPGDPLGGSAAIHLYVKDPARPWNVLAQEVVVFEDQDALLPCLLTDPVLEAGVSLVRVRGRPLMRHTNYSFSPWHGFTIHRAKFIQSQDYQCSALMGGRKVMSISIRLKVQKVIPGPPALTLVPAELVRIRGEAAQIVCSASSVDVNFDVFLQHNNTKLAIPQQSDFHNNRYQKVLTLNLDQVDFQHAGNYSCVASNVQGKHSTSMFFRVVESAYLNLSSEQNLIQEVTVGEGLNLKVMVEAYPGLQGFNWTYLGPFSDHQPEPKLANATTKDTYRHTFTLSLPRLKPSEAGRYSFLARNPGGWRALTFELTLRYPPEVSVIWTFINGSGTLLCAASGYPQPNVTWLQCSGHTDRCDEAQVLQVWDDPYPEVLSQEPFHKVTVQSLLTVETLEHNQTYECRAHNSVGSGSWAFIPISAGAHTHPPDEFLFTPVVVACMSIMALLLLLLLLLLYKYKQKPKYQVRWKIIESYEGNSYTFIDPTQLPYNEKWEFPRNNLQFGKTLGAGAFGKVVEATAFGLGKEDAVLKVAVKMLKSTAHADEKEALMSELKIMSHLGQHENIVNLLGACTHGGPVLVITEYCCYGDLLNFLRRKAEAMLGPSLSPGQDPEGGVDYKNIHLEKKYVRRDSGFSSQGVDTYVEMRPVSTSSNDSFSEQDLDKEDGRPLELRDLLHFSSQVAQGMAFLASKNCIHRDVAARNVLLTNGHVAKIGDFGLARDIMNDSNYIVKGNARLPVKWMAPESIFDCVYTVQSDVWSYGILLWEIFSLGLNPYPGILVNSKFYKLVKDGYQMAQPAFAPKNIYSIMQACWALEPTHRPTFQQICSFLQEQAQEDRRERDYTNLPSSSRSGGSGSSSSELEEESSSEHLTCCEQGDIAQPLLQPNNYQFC

| Structure (SMILES) | test | setting | how to read | quantity | result |
| --- | --- | --- | --- | --- | --- |
| Nc1ncc(-c2cc(-c3cnn(CC(F)(F)F)c3)ncc2F)nc1C(=O)NC1CNCC(F)C1 (stereo not drawn) | enzyme activity | 1 µM | baseline: DMSO control | remaining activity | 96.1% |
| O=C(Nc1ccc(Oc2ncnc3[nH]cc(-c4ccccc4)c23)c(F)c1)c1c2n(n(-c3cc(F)ccc3F)c1=O)CCCC2 | enzyme activity, inhibitor | 0.5 µM |  | inhibition | 4% |
| NC(=O)C[C@H]1CCc2sc3ncnc(O[C@H]4CC[C@H](N5CCOCC5)CC4)c3c21 | enzyme activity, inhibitor | 10 µM |  | inhibition | 1% |
| Cc1nc2c(F)cc(-c3nc(Nc4ccc(CNC(=O)CCCCCCC(=O)NO)cc4)ncc3F)cc2n1C(C)C | enzyme activity, inhibitor | 1 µM |  | inhibition | 73% |
| C=C1CCCCCCCCCC(CO)C1=O (stereo not drawn) | cell-free assay | 10 µM |  | remaining signal | 94% |
| CCn1cc(C(=O)O)c(=O)c2c(N)c(F)c(NC3CCCCC3)cc21 | kinase activity | 0.1 µM, added: ATP at Km |  | inhibition | 0.1% |
| CNC(=O)C[C@H](Cc1ccc(C#N)cc1)NC(=O)c1cc(-c2ccc(CN[C@H](C)c3ccc(C)cc3)o2)ccc1Cl | enzyme activity, inhibitor | 1 µM |  | activity vs control | 114% |
| Cc1[nH]nc2c1N=C(c1ccccc1Cl)c1cnc(N3CCOCC3)cc1N2 | enzyme activity, inhibitor | 0.5 µM |  | inhibition | > 99% |
| COCC12C(=O)NC3C4(C(OC)CC1O)C1CC5(O)C(OC)C(O)C(OC(C)=O)(C1C5OC(=O)c1ccccc1)C3(O)C(OC)C24 (stereo not drawn) | kinase activity, inhibitor, ProQinase kinase profiling | 25 µM | baseline: control | remaining activity | 112% and 116% |
| Cc1cccc(O[C@H]2CCC[C@@H](C(C)CNCc3ccncc3)C2)c1 (relative stereo) | cell-free assay | 1 µM |  | inhibition | 4% |
| C=CC(=O)Nc1cccc(-c2cnc3[nH]cc(C(=O)NC(C)(C)C)c3n2)c1 | kinase activity | 0.1 µM |  | inhibition | 36% and 38% |
| CN1CCN(Cc2ccc(-c3ccc(CO[C@H]4CCC[C@@H]4NC(=O)c4cc(-c5cnn(C)c5)cnc4N)cc3)cc2)CC1 | enzyme activity, inhibitor | 0.1 µM |  | inhibition | 4% |
